Measured values from different studies.
Compare with care: the assays were run in different laboratories. Values joined by “and” are separate records of one study, mostly repeats; a detail may differ.
Target: Dual specificity protein kinase CLK2 (CLK2, Homo sapiens, UniProt P49760)
Chain of UniProt P49760 (whole entry, looked up): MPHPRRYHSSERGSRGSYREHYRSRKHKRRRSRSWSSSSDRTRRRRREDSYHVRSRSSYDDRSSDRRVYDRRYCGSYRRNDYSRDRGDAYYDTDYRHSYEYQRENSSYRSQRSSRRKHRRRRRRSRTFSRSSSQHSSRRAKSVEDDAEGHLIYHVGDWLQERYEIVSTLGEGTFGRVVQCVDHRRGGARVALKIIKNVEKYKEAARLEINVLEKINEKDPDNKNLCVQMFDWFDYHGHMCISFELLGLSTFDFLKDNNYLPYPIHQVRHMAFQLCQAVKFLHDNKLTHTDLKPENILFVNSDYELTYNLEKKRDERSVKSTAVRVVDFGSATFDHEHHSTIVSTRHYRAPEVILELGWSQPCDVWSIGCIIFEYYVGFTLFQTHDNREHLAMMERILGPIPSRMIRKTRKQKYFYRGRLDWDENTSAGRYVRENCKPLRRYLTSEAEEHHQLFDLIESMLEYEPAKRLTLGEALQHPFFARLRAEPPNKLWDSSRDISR

| SMILES | test | system | setting | scale | measurement | value |
| --- | --- | --- | --- | --- | --- | --- |
| C=CC(=O)Nc1cccc(-c2cnc3[nH]cc(C(=O)NC(C)(C)C)c3n2)c1 | enzyme activity, inhibitor | – | 0.1 µM | – | inhibition | 74% |
| CNC(=O)C[C@H](Cc1ccc(C#N)cc1)NC(=O)c1cc(-c2ccc(CN[C@H](C)c3ccc(C)cc3)o2)ccc1Cl | enzyme activity, inhibitor | – | 1 µM | – | activity vs control | 106% |
| N[C@H]1CC[C@H](Nc2nccc(-c3cccnc3Oc3ccc(NC(=O)NC4CC4)c4ccccc34)n2)CC1 | kinobead competition pulldown | HEK293/HCT116 lysate mixture | 10 µM, 1 h, 4 °C | lower = stronger competition | log2 LFQ intensity | 24.9 and 25 and 24.8 |
| Cc1cccc(O[C@H]2CCC[C@@H](C(C)CNCc3ccncc3)C2)c1 (relative stereo) | enzyme activity, inhibitor | – | 10 µM | – | inhibition | -5% |
| COc1c(OCCCN2CCOCC2)ccc2c1N=C(NC(=O)c1cnc(N)nc1)N1CCN=C21 | kinase activity, inhibitor | – | 1 µM | relative to: untreated control | remaining activity | 99% |
| CNC1C[S+]2CC[S+]3CC[S+](C1)[Ru-4]321([N]=C=S)[n]2c3ccc(OC)cc3c3c4c(c5cc(F)c[n+]1c5c32)C(=O)NC4=O (stereo not drawn) | KinomeScan | – | 0.1 µM | relative to: untreated | remaining binding | 1.8% |
| Nc1ncc2c(n1)-c1c([nH]c3ccc(C4=CCOCC4)cc13)CCC2 | binding, competition with immobilised ligand | – | 1 µM | – | remaining binding | 20% |
| O=C(Cc1ccc(OCc2ccccc2)cc1)NC1(C(=O)O)CCN(C(=O)c2ccc(-c3cccc(Cl)c3)cc2)CC1 | enzyme activity, inhibitor | – | 10 µM | – | activity vs control | 83% |
| NC(=O)[C@@H](O)C[C@H]1CCc2sc3ncnc(O[C@H]4CC[C@H](N5CCOCC5)CC4)c3c21 | enzyme activity, inhibitor | – | 10 µM | – | inhibition | 99% |
| CCN1CCN(Cc2ccc(C(=O)Nc3ccc(C)c(NCc4cnc5[nH]ccc5c4OC)c3)cc2C(F)(F)F)CC1 | binding, competition with immobilised ligand | – | 1 µM | – | remaining binding | 90% |
| Cc1ccc(-c2c(/C=C(\C#N)C(=O)NC(C)C)n(CCCO)c3ncnc(N)c23)cc1 | cell-free assay, competition with immobilised ligand | – | 1 µM | – | remaining binding | 76% |
| CC(C)=CC1OC(C)(C)C2C=C3C(=O)C(Cl)=CC(O)C3C3C(O)C4OC4C(=O)C132 (stereo not drawn) | cell-free assay, competition with immobilised ligand | – | 10 µM | – | remaining binding | 70% |
| COc1cc(Nc2nccc(-c3cnn4nc(OC)ccc34)n2)cc(C(F)(F)F)c1 | binding, competition with immobilised ligand | – | 1 µM | – | remaining binding | 16% |
| C=CC(=O)N1CCCC(n2c(=O)c3ncccc3n(Cc3ccc(Oc4ccccc4)cc3)c2=O)C1 (stereo not drawn) | cell-free assay, competition with immobilised ligand | – | 1 µM | – | remaining binding | 91% |
| Cc1cc(NC(=O)[C@H](O)c2cc(F)cc(F)c2)ccc1-c1cnc(N)c(C(=O)NC(C)C)c1 | binding, competition with immobilised ligand | – | 0.1 µM | – | remaining binding | 61% |
